Assay results from different studies.
Each numbered part is a random draw from the data of one study; scales do not carry over between parts. Changes are numbered by the printed parent chain.

Series 1
Target: Interferon regulatory factor 7, full length, phosphomimetic (IRF7, Homo sapiens, UniProt Q92985, residues 1-503, S471D/S472D/S475D/S476D/S477D/S483D/S484D/S487D)
Method: protein-binding microarray
Molecule type: double-stranded DNA, one strand shown
Medium: in vitro
Tested at: 2200 nM top
Setting: 60-bp whole probe
With: salmon DNA 0.4 mg/ml
Reference: random background probes
Direction: higher = stronger binding
Constant ends, left off below: GCCTAGCAC … GTCTTGATTCGCTTGACGCTGCTG
Target sequence (chain): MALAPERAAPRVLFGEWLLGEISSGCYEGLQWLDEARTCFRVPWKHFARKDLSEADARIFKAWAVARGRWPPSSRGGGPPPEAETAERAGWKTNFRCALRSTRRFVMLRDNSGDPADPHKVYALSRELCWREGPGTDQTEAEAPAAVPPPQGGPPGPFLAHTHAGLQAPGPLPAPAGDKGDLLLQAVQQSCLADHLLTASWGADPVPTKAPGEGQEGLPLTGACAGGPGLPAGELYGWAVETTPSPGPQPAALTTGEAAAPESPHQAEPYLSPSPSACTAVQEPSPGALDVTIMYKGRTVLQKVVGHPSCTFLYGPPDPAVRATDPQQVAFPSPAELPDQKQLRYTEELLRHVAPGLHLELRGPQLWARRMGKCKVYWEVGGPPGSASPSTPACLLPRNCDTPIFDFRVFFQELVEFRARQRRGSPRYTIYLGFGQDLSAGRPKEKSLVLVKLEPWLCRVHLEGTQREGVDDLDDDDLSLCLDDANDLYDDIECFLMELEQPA
| Oligonucleotide | fitted relative affinity [z-score] |
| --- | --- |
| TTAGGTCTGCTTTTCCTTTAGTGCTAG | 2.02 |
| GACGATTTCAGTTTCGAGTCGTGCTAG | 8.27 |
| TCAGATATCGGGTATCGATTAGTGCTA | 0.251 |
| TTGGGTTTCGGACTGGGTTAGTGCTAG | 2.72 |
| TTAGCTATCGACACTGGGTTAGTGCTA | 0.0366 |

Series 2
Target: Histone acetyltransferase KAT6A, both winged helices, GST fusion (KAT6A, Homo sapiens, UniProt Q92794, residues 1-181)
Method: protein binding microarray
Molecule type: double-stranded DNA, one strand shown
Medium: in vitro
Tested at: not given
Setting: 8-mer, flanks averaged, mean of 2 arrays, mostly near background
Reference: not given
Direction: higher = stronger binding
Residues (chain): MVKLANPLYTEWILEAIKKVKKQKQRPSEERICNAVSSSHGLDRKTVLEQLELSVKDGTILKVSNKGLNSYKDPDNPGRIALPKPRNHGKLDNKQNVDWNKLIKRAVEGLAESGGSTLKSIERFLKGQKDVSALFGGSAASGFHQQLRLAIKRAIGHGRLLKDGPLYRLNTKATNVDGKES
| Oligonucleotide | E-score |
| --- | --- |
| CCCGGCTC | 0.178 |
| GAAAGATC | 0.00957 |
| ATTCTATC | -0.168 |
| GCTTGTCC | 0.0855 |

Series 3
Target: ABI1, truncated, D143A, DHFR fusion (Arabidopsis thaliana)
Method: DHFR PCA, deep sequencing
Medium: yeast
Setting: methotrexate growth selection, single substitutions
With: (+)-ABA 0.39 µM
Reference: wild-type fitted maximum
Direction: higher = stronger binding
Starting sequence: PYL1, truncated, DHFR fusion (Arabidopsis thaliana); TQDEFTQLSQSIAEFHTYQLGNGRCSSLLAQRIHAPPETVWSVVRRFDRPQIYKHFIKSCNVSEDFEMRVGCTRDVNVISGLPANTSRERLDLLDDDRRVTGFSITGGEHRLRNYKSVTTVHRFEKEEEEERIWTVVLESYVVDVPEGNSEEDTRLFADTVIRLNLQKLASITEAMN
| Variant | relative binding score [%] |
| --- | --- |
| R69N | 19.5 |
| K58D | 5.58 |
| A13D | 38.7 |
| V145I | 42 |
| E38T | 0.809 |

Further values, each from its own experiment
| Molecule | target | test | test system | conditions | how to read | quantity | value |
| --- | --- | --- | --- | --- | --- | --- | --- |
| PhoQ, residues 284 288 289 292 302 303 SSTLSG | PhoP, residues 12 14 15 18 19 NIMAP (Escherichia coli, UniProt P23836) | Sort-seq, refers to: YFP reporter | E. coli | PhoQ-PhoP variant library, with: 10 µM Mg2+ | reference: high Mg2+ state, higher = stronger signaling | fold induction | 0.754 |

Excerpt of the above (series 2):
| Oligonucleotide | E-score |
| --- | --- |
| GAAAGATC | 0.00957 |
| ATTCTATC | -0.168 |
